Published values collected from several papers.
Each line is one published result; not all experiments were run side by side. Values joined by “and” are separate records of one study, mostly repeats; a detail may differ. ± marks the error that the study gave. ≈ marks a conversion by molar mass, not a printed value.

NC(=O)/C(=C/n1cnc(-c2cc(C(F)(F)F)cc(C(F)(F)F)c2)n1)c1cncnc1 — median overall survival (Eµ-TCL1 leukaemic splenocytes, C57BL/6 mice CLL transplant; oral gavage, 15 mg/kg 2 times weekly): 50 days
Cc1c2ccccc2c(C)c2c1ccc1ccccc12 — non-protective dose (item: adrenal hemorrhage; rat; oral, in oil, against adrenal apoplexy from challenge, added: challenge 5 mg iv): 1.5 mg
O=C(O)c1cc(O)c(O)c(O)c1 — EC50 (ABTS scavenging, absorbance): 560 µM
COc1ccc(-c2nnc(COc3cc(-c4nc5ccccc5s4)ccc3OC)o2)cc1 — minimal effective dose (seizure protection; albino mouse, scPTZ-induced seizure; ip, 4.0 h): 300 mg/kg
CC(C)(O)CNc1nc(Nc2ccnc(C(F)(F)F)c2)nc(-c2cccc(C(F)(F)F)n2)n1 — plasma 2-HG reduction AUEC0-24 (item: 2-hydroxyglutarate; human newly diagnosed mIDH AML; oral, 100 mg once daily, induction cycle 1 day 1, added: induction chemotherapy): 18.7%
CS/C(S)=N/CCCC[S+](C)[O-] (racemic) — mRNA fold change (RT-PCR, item: Marcks; rat, colon; oral gavage, 200 mg/kg, 96 h, dosed for four days; relative to: vehicle): 6.89
NC/C(=C\F)COc1cccc(Cn2c(=S)[nH]c(=O)c3[nH]cnc32)c1 — renal fibrosis (mouse, UUO model, left kidney; oral, 60 mg/kg twice daily, 14 days): inhibited
CC(=O)N[C@@H](CCCCN)C(=O)N[C@@H](CC(C)C)C(=O)N[C@@H](CC(=O)O)C(=O)N[C@@H](CC(C)C)C(=O)N[C@@H](CCCCN)C(=O)N[C@@H](CC(C)C)C(=O)N[C@@H](CC(=O)O)C(=O)N[C@@H](CC(C)C)C(=O)N[C@@H](CCCCN)C(=O)N[C@@H](CC(C)C)C(=O)N[C@@H](CC(=O)O)C(=O)N[C@@H](CC(C)C)C(N)=O — synovial inflammation score (Sprague Dawley rat, knee OA model, synovium; intra-articular, dose not given, 6 weeks; direction not given): 1.3 ± 0.3
COc1ccc(-c2nc3ccccc3s2)cc1OCc1nnc(-c2ccc([N+](=O)[O-])cc2)o1 — minimal effective dose (seizure protection; albino mouse, scPTZ-induced seizure; ip, 4.0 h): 30 mg/kg
CN(Cc1cccc(Cl)c1)Cc1cccc(CN(C)Cc2cccc(Cl)c2)n1 — paw edema inhibition (mouse carrageenan paw edema; ip, 10 mg/kg daily, 74 h; relative to: vehicle): < 20%
Clc1ccc(COC(Cn2ccnc2)c2ccc(Cl)cc2Cl)cc1 (centres unmarked) — EC20 (cytochrome c release, ELISA; BALB/cByJ female mouse liver mitochondria; 30 min; relative to: alamethicin maximal release): 299 µM
CCCCOC(=O)/C=C/c1ccc(O)c(O)c1 — radical scavenging (DPPH; ethanol; 20 µM, 30 min, room temperature): 63%
O=C(O)Cc1ccccc1Nc1c(Cl)cccc1Cl — EC20 (mitochondrial swelling; BALB/cByJ female mouse liver mitochondria; 30 min, added: succinate + rotenone; relative to: CaCl2 maximal swelling): > 800 µM
CC(=O)O[C@@]12CO[C@@H]1C[C@H](O)[C@@]1(C)C(=O)[C@H](O)C3=C(C)[C@@H](OC(=O)[C@H](O)[C@@H](NC(=O)OC(C)(C)C)c4ccccc4)C[C@@](O)([C@@H](OC(=O)c4ccccc4)[C@H]21)C3(C)C — tumour volume (mice bearing PC-3 xenografts; 5 mg/kg once weekly, 14 days after inoculation, treated 3 weeks): 114 ± 31.1 mm3
C[N+]1([O-])CCN(C2=Nc3cc(Cl)ccc3Nc3ccccc32)CC1 — DOPAC/DA ratio (agonist; DAT-cre-ribotag mice, hM3Dq in SN, dorsal striatum; subcutaneous, 0.3 mg/kg, 30 to 45 min): 1.77 ± 0.08
Nc1nnc(-c2cccc(Cl)c2Cl)c(N)n1 — seizure frequency (spontaneous generalized tonic-clonic seizures; Scn1a+/- mice; oral in chow, 125 mg/kg chow, 60 h, subchronic from P18, video P22-P24): 6.9 ± 1.6 seizures/day
O=C1c2c(O)cc(O)cc2O[C@H](c2cc(O)c(O)c(O)c2)[C@H]1O — ethanol intake (rat, intermittent ethanol access; oral in drinking fluid, 0.05 mg/mL, end of week 7): 1.8 ± 1 g/kg/day
CN(Cc1cc(Br)cc(Br)c1N)C1CCCCC1 — mice with metastasis (ICR SCID mice, TRAMP cells iv, liver; 30 mg/kg, 8 weeks; relative to: vehicle): 27%
Cc1cnc(-c2ccnc(C(C)(C)O)n2)cc1-n1c(C)cc(OCc2ncc(F)cc2F)c(Cl)c1=O — IC80 (IL-6 release, inhibitor; human, whole blood, ex vivo; plasma concentration, added: LPS): 0.748 µg/mL (≈ 1.46 µM)
CC(=O)CC(c1ccccc1)c1c(O)c2ccccc2oc1=O (centres unmarked) — AUC of prothrombin time (human; 25 mg single dose, 0 to 168 h): 2480 ± 246 s h
O=C1NC(=O)C(c2ccccc2)(c2ccccc2)N1 — minimal effective dose (seizure protection; albino mouse, scPTZ-induced seizure; ip, 0.5 h): 30 mg/kg
CNCC(CS)CNC — irradiated tumour growth (nude mouse, B16 melanoma xenograft; topical, 1850 mM, four applications, 14 days, added: 9.2 Gy irradiation; relative to: topical vehicle): no effect
COc1ccc(-c2nc3ccccc3s2)cc1OCc1nnc(-c2c(C)cccc2C)o1 — minimal effective dose (seizure protection; albino mouse, scPTZ-induced seizure; ip, 0.5 h): 100 mg/kg
CC(/C=C/C(=O)NO)=C\[C@@H](C)C(=O)c1ccc(N(C)C)cc1 — serum TNF-α reduction (inhibitor, ELISA; wild-type mice, serum; dose not given, 2 h after LPS, daily dosing from day -2, LPS on day 0, added: LPS; relative to: LPS-treated vehicle): 62%
c1ccc2c(c1)ccc1c3c(ccc12)CCC3 — non-protective dose (adrenal apoplexy prevention; rat; oral, added: 7,12-DMBA 5 mg i.v.): 1 mg
C=CCn1c(=O)c2cnc(Nc3ccc(N4CCN(C)CC4)cc3)nc2n1-c1cccc(C(C)(C)O)n1 — increase in γH2AX level (immunohistochemistry; human patients, resected tumour; dose not given, 8 h, all dose cohorts combined; relative to: matched archival tissue): 210%
O=c1[nH]c(=S)[nH]c2nc(-c3ccccc3)cc(-c3ccc4ccccc4n3)c12 — IC50 (DPPH scavenging, absorbance; 30 min): 189 µM
COc1ccc(-c2nc3ccccc3s2)cc1OCc1nnc(Cc2ccccc2)o1 — minimal effective dose (seizure protection; albino mouse, scPTZ-induced seizure; ip, 0.5 h): 100 mg/kg
Cc1c2ccccc2cc2ccc3ccccc3c12 — non-protective dose (adrenal apoplexy prevention; rat; oral, added: 7,12-DMBA 5 mg i.v.): 0.5 mg
CC(C)[C@H](NC(=O)[C@@H]1CCCN1C(=O)[C@H](CCCNC(=N)N)NC(=O)[C@H](CS)NC(=O)[C@H](Cc1c[nH]c2ccccc12)NC(=O)[C@H](CCCNC(=N)N)NC(=O)[C@@H](Cc1ccccc1)NC(=O)[C@H](Cc1c[nH]cn1)NC(=O)[C@H](CCC(=O)O)NC(=O)[C@H](CS)NC(=O)[C@H](CS)NC(=O)[C@H](CCCCN)NC(=O)[C@@H]1CC(=O)N[C@@H](CCCNC(=N)N)C(=O)N[C@@H](C)C(=O)N[C@@H](CC(=O)O)C(=O)N[C@H](Cc2ccc(O)cc2)C(=O)N1)C(N)=O [technetium-99m labelled] — tissue uptake (C57 mice, muscle; intravenous, 0.037 MBq, 2 h): 0.14 ± 0.08 %ID/g
COc1ccc(-c2nc3ccccc3s2)cc1OCc1nnc(-c2ccc(O)cc2)o1 — minimal effective dose (hind limb tonic extension; albino mouse, MES-induced seizure; ip, 4.0 h): 30 mg/kg
CC1CCc2c1ccc1c2ccc2ccccc21 (centres unmarked) — non-protective dose (adrenal apoplexy prevention; rat; oral, added: 7,12-DMBA 5 mg i.v.): 0.5 mg
COc1ccc(-c2nc3ccccc3s2)cc1OCc1nnc(-c2ccc(Cl)cc2)o1 — minimal effective dose (hind limb tonic extension; albino mouse, MES-induced seizure; ip, 4.0 h): 100 mg/kg
CCCCC[C@H](O)/C=C/[C@H]1[C@H](O)CC(=O)[C@@H]1CCCCCCC(=O)O — minimal maximal response fraction (antagonist; Rhinella marina urinary bladder; added: [2-O-methyltyrosine]-oxytocin; relative to: response without compound): 0.1
difelikefalin — NRS itch score change (Japanese haemodialysis patients with pruritus; intravenous, 0.5 µg/kg thrice weekly, week 8; relative to: baseline, direction not given): -3.65
Cn1c(-c2ccc(C(N)=O)cc2F)nnc1C(C)(C)Oc1c(F)cc(Cl)cc1F — mean Cmax (young non-Japanese humans, plasma; oral, 0.7 mg, day 1, single dose): 0.0221 ng/mL
CC(C)(O)c1ccccc1-c1ccc2[nH]c(/C=C/c3ccc(C(F)(F)F)cc3)nc2c1 — plasma concentration (human; max heat pain tolerance reached): > 100 ng/mL
COc1cc(CCOC(=O)/C=C/c2ccc(O)c(O)c2)ccc1O — radical scavenging (DPPH; ethanol; 20 µM, 30 min, room temperature): 60%
COCCCCn1c(C(=O)N(CC(C)C)[C@@H]2CNC[C@H](C(=O)N3CCOCC3)C2)nc2ccccc21 — plasma aldosterone change (radioimmunoassay; humans; dose not given; relative to: baseline): no effect
neuropeptide Y — time to response resolution (mean arterial pressure; rat Sprague Dawley urethane-anaesthetized; intravenous, 5 nmol): 23.1 ± 6 min
Cc1ccc(C(=O)N(C(=O)c2ccc(C)cc2)C(=S)N2N=C(c3ccccc3)CC2c2ccc(C)cc2)cc1 (centres unmarked) — IC50 (DPPH scavenging, absorbance): 116 µM
Cc1cc(C)c(/C=C2\C(=O)Nc3ccccc32)[nH]1 — tumour area (MRI; human; concentration not given, 1.3 months): 1.3 cm²
insulin aspart — AUC glucose infusion rate (euglycaemic clamp; type 1 diabetes patients; subcutaneous, 0.2 U/kg single, 0-60 min, antibody quartile 2, 3.12-6.53 %B/T): 113 mg/kg
COc1ccc(-c2nc3ccccc3s2)cc1OCc1nnc(-c2ccc(N)cc2)o1 — minimal effective dose (seizure protection; albino mouse, scPTZ-induced seizure; ip, 4.0 h): 100 mg/kg
CC(C)(C)c1nn(-c2cc(OCc3cn(Cc4ccc(Cl)cc4)nn3)c(Cl)cc2Cl)c(=O)o1 — IC50 (Toxoplasma gondii; intracellular parasite growth, luminescence; HFF, wild type, NanoLuc reporter; 96 h): 2.1 µM and < 2.5 µM
C[C@H]1C[C@H]2CSC(N)=N[C@@]2(c2nc(NC(=O)c3ccc(OC(F)F)cn3)cs2)CO1 — change from baseline (item: CSF Aβx-38; healthy adults; 125 mg once daily, 14 days, day 15; relative to: placebo-adjusted baseline): -79.5%
CC(C)(C(=O)NCC(F)(F)C(F)(F)F)C(=O)N[C@@H]1C(=O)Nc2ccccc2-c2ccccc21 — partial response rate (patients with refractory solid tumours; dose not given, added: capecitabine): 10%
SIYNFEKL — IL-2 only cells (flow cytometry, item: CD44hi CD8+ T cells; peptide, OT-I CD8+ T cells, mouse; dose not given, primed 5 days, TGF-β1 from day 2 onward, added: 20 ng/mL TGF-β1): 21.8%
Nc1ccc2ccc3c4ccccc4ccc3c2c1 — menadione reductase activity (inducer; female rat, liver; oral, 1 mg, 24 h, sesame oil vehicle): 38.8 enzyme units
CCCCCCOC(=O)/C=C/c1ccc(O)c(O)c1 — radical scavenging (DPPH; ethanol; 20 µM, 30 min, room temperature): 67%
COc1ccc2nc([S@@+]([O-])Cc3ncc(C)c(OC)c3C)[nH]c2c1 — mean intragastric pH (healthy human; oral, single dose, 40 mg, 12 to 24 h, crossover vs dexlansoprazole MR): 3.5
LYQY — transepithelial resistance (peptide, EpH4, mouse; 350 µM, 24 h, recovery after calcium switch): 825 ± 156 Ohm·cm²
CC12CC3CC(C)(C1)CC(N)(C3)C2 — seizure frequency (human; 0.5 mg/kg/day, 9072 h, added: valproic acid): 3.3 per week
